Assay results pooled from the literature.
Compare with care: the assays were run in different laboratories. Several values in a cell are separate wells, animals, samples, runs or records. ± marks the error that the study gave.

For `C/C1=C\CC[C@]23O[C@H]2[C@@H](OC3=O)c2c(C)coc2C1`, the inhibition was -7.26% (THP-1; pyroptotic LDH release; 2 µM, 40 min, added: LPS then nigericin).
The inhibition of `Cc1nn(-c2nc3c(F)cc(F)cc3s2)c(O)c1C(c1ccc(C(F)(F)F)cc1)c1c(C)nn(-c2nc3c(F)cc(F)cc3s2)c1O` is reported as 49% and 50.5% and 43.4% and 45.5% and 50.1% and 46% (RAW-ISG; IFN luciferase reporter; 2.5 µM, added: HT-DNA).
`Nc1cc(O)nc(N)n1` gave an inhibition of -10.9% (THP-1; pyroptotic LDH release; 2 µM, 40 min, added: LPS then nigericin).
For `COc1cc(O)c2c(c1)C(=O)c1cc(C)cc(O)c1C2=O`, the viability was 97.7 ± 3.82% (HK-2 co-cultured with HepaRG; MTT; 33.33 µM, 48 h; relative to: untreated control).
`Cc1cc(N2CCc3c(c(C)nn3CC34CCC(NC(=O)[C@@H]5COCCN5)(CC3)CC4)C2)c2cnn(C)c2n1` has an inhibition of 98 ± 1% (human PBMC; qRT-PCR, refers to: RSAD2 mRNA; 100 nM, added: ssRNA).
`CCOC(=O)c1nn(-c2ccccc2)c(C#N)c1NC(=O)c1nn(CC)cc1C` gave an inhibition of 30 ± 6.7% (human monocytes; phagocytosis of anti-D RBCs; 5 µM, lab-synthesized sample).
The viability of `COc1c(O)c(C)cc2c1C(=O)c1c(O)cccc1C2=O` is reported as 62.1 ± 13.9% (HK-2 co-cultured with HepaRG; MTT; 266.67 µM, 24 h; relative to: untreated control).
For `CC(=O)OC[C@H]1O[C@@H]([S-])[C@H](OC(C)=O)[C@@H](OC(C)=O)[C@@H]1OC(C)=O.CCP(CC)CC.[Au+]`, the inhibition was 35% (HUVEC; tube branching nodes, tube formation; IC10, 16 h; relative to: untreated).
`Cc1[nH]c(/C=C2\C(=O)Nc3ccc(S(=O)(=O)N(C)c4cccc(Cl)c4)cc32)c(C)c1C(=O)N1CCN(C)CC1` has an inhibition of -2.82% (THP-1; pyroptotic LDH release; 2 µM, 40 min, added: LPS then nigericin).
`CCOC(=O)c1nn(-c2ccccc2)c(C#N)c1NC(=O)c1nn(CC)cc1Br` gave an inhibition of 41 ± 6.3% (human monocytes; phagocytosis of anti-D RBCs; 5 µM, lab-synthesized sample).
`Cn1cc(-c2ccc(-c3cncc(Cl)c3N3CCC4(CCNC4=O)CC3)cc2)cn1`: “fold change in expression” -2.03 (COLO 205; microarray, refers to: FABP5; concentration not given, 2 h, gene set E-FABP; relative to: untreated cells).
`CCOC(=O)c1nn(-c2ccccc2)c(C#N)c1NC(=O)c1ccn(CC)n1` gave an inhibition of 1.1 ± 1.7% (human monocytes; phagocytosis of anti-D RBCs; 5 µM, lab-synthesized sample).
`Cc1nc(Nc2ncc(C(=O)Nc3c(C)cccc3Cl)s2)cc(N2CC[C@H](O)C2)n1` has an inhibition of 36% (NAMALWA CSN/70; cell proliferation, CellTiter-Glo; 10 µM, 72 h).
